Published values pooled from the literature.
Parts stem from different laboratories: compare values within a part only.

Block 1
Target: Sal-like protein 4, full length isoform B (SALL4, Homo sapiens, UniProt Q9UJQ4-2, residues 1-616)
Technique: universal PBM
Molecule type: double-stranded DNA, one strand shown
Medium: in vitro
Concentration: not given
Notes: 8-mer, flanks averaged, mean of replicates
Direction: higher = stronger binding
Oligonucleotide | E-score
CCCTTTAC | 0.00585
AGCCTCCA | -0.102
ACACGAAT | 0.135
ACAGAGCG | -0.0751
GTAAAAGA | 0.0626
GCATGACA | 0.04
AAGCATGA | 0.0397
CTCATGCC | -0.135
CACTAGAA | 0.0928
ACCCCACT | -0.17
CATCGAAA | 0.0863
ATAAATCA | 0.333
ACTGACAC | -0.0692
AAAGTCGG | -0.0936
ATCTTCAC | 0.0382
CAGCCAAC | -0.112
ACCCATTA | 0.0898
CAGTATGC | -0.022
AAGTACGT | 0.128
CACTACAC | 0.0402
ACCTCGTA | 0.14
CACTTTCG | 0.17
AAAGATGC | -0.0717

Block 2
Organism: Saccharomyces cerevisiae
Read-out: binding
Technique: competitive growth deep sequencing
Molecule type: peptide
Strain: cyclin D3-Cln2 fusion strain
Concentration: concentration not given
Notes: RxL motif peptides
Direction: direction not given
Sequence | growth enrichment score
TKVRRNLFNQELL | 0.0691
ICAKRSLCAAFSV | 0.144
PCHRRVLCFDSTT | 0.174
VKTKKRLNFDDKV | 0.107
VAPRRVLFADEAL | 0.124
GSPLKKLFTSTGL | 0.0805
TSACRSLFGPVDH | 0.0566
SRIRRELFIEEIQ | 0.293
TLKGRRLVFDNQL | 0.12
PPAKRRLELGESG | 0.105

Block 3
Target: RNA binding protein fox-1 homolog 2, RRM domain, GST-SBP tag (RBFOX2, Homo sapiens, UniProt O43251-10, residues 100-194)
Technique: RNA Bind-n-Seq
Molecule type: RNA
Medium: in vitro
Concentration: 365 nM
Notes: natural RNA segment, single round, ends assumed
Reference: no-protein control
Direction: higher = stronger binding
Constant ends, left off below: GGGAGUUCUACAGUCCGACGAUC … UGGAAUUCUCGGGUGCCAA
Construct (chain): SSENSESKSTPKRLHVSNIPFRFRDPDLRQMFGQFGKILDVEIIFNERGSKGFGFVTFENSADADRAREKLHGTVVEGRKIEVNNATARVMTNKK
Oligonucleotide | RBNS enrichment (R)
AUUAAAUCGUCACAGCCAAGUAAUAACCCAAGAAUGGUAUGAGUUUCAUGUGUAAUAGCUCAAAUGGAAUAAGCAUGAAUGCUGGAGUGGACCAUUAUCCUCAAAUAUUC | 9.87
UGUAUCUGGUUUCUACAUGGAAGACUAAACUCAUGCUUAUUGCUAAAUGUGGUCUUUGCCAACUAAAUUUAAGAUGCAGCAUUUUAGAAAUUUACAUAUCAAUGUUUCUA | 0.343
AUCCUUCUUGGCUUCCUGGCGCCCCCUAUCGGGGGUGAGCGAAGCCCCCACUACUAAAUGGCCUCUCUCCACUACCCCGACUAUCCCUGCACAUAAACUCCGUUUUUUUU | 0.506
CAGAAGUGUGACCUCAGUUAUAUAUACAUCCCAGCUCUGCCCAGUAUCCCUCACUUACCAAGAGGAGAAUGGAGGGAUAAUGGACUCACCCUAGCCUAGGGCUUCGACAU | 0.389
CUACUUGGAUAAAGAAUUUAAAUGGAAUUACGUAUAAAUUAAUAUAAAAUGAUUACCUCUGGUGUUGACAGGUUGAACUUGCACUCUUAAGGAACAGCCAUAACCCUCCG | 1.36
AUAUACUUUCUGUUAUUCCAAAAUGUCAUCAUUAGGGAAGCCACUAAGAGUUUGGAAAUAGGGGCUGGAGAGAUGCCUCUGUGGUUAAGAGCAUUGGCUGCUCCUCUAGA | 0.305
GUUUCACCUUCCCUCGACUUGACCCUUUCCUCCCCCAGCGUCAGUUUCACUCCCUCUUGGUUUUUAUCAAAUUUGCCAUGACAUUUCAUCUGGGUGGUCUGAAUAUUAAA | 0.605
UCUUUUAUCCGUCUAUUUAUUUUGUAAGUGUAUUCGUGUGGAGGAGGUUGUUGCUUUAUUUUUUUAAGGCUCUGGAGUGUUGUGUAUGGUUUCUUUUCACAUCCCAGCCU | 0.399
AGGGUCCUUGGUCUCUUCAGGCCCUGAGCGGGGUCAGGCACUGGGACGCCUUCCCCGCCCUCGAGGCUUCCCGGCUCUCAGAGGCUCCUUUUUUCUCUCCUGCUCCAGGC | 0.457
AAAAUCAACCCUGGUGUUGAGAGAACGUCCUUCUGUCCAUCGUGGGUAACAGCCUUGGGGAGGGUGCAGAGCUCUGCAGAGCCAUGGGCCAGGUGGGGCUGCCUCAGUCC | 0.467
UGUAAAUAGACAAAAGGAAACAUUUGCCAAAAGCGGCAGAUCUUUACUGAAAGAGAGAGCAGCUGUUAUGCAACAUAUAGAAAAAUGUAUAGAGGUUUGGACAGACCCGG | 0.65
UGAUGCCAAAAUAUUGCUUAUGUCUCUACAUGGUAUUGUAAUGAAUAUCUGCUUUAAUAUAGCUAUCAUUUCUUUUCCAAAAUUACUUCUCUCUAUCUGGAAUUUAAUUA | 0.412

Block 4
Target: RING finger protein unkempt homolog, zinc fingers 1-6, GST-SBP tag (UNK, Homo sapiens, UniProt Q9C0B0, residues 30-357)
Technique: RNA Bind-n-Seq
Molecule type: RNA
Medium: in vitro
Concentration: not given
Notes: RNA with constant flanks, human and mouse sites, ends assumed
Reference: input RNA pool
Direction: higher = stronger binding
Constant ends, left off below: GGGAGUUCUACAGUCCGACGAUC … CAACAGAGGAUUGAGCAUCA
Residues (chain): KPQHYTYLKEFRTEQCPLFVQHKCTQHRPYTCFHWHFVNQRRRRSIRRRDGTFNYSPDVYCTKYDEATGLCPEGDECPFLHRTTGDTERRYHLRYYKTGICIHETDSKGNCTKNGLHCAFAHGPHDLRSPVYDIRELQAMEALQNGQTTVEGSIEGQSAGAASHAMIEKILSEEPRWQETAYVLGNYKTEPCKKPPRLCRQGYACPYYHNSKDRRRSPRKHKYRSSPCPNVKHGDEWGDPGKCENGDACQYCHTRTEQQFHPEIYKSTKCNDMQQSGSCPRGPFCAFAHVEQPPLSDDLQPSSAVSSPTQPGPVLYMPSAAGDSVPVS
Oligonucleotide | bound/input enrichment
GGCAUGGUGUCAGAGCCCCUGGAGGACUUGGACCCCUACUAUGCAGACAAAAAGACUUUCAUAGUAUUGAACAAAGGGAAAACAAUCUUCCGUUUCAAUGCCACACCUGCUUUAUAUAUG | 0.0976 ratio
GAGAAAAUCAAGAUCAAGCCAGCCCCGUACCCCAUGGGAAGCAGCCAUGCUUCCGCCAGUAGCAUCAGCUUUAACCCCAGCCCUGAGGAGCCGGCCUAUGAUGGCCCAAGCACCAGCAGU | 0.238 ratio
UGUAAACUCAUGUACAGUUUUUUUGGGGGGGAGGCAAGGGGAGGGUUAGCAACUUCAAAUAGAAUCAUUUGUUGUAUUCCUCAAAUGGUAAACAGUCACCACUCAGCUAGAGACUGUCGU | 15.5 ratio
GCGGCUUUUUGCCUUCUCUCUACUCUGGGGGGAUAUUUGGUCACCUCGUUCUUGUUGCUUAAAUACCCAGCGUUGCUGCACCAGAGAAAGAAACAGCGAUUCCUCAGUAGGCACAUCUCU | 0.212 ratio
GGUGUGCAGCUCUACCUAAUGUUGGUUGAGGUUUUCGAGAGCGAAUAUUCAAGGAAGAAAUAUUACUAUGUCGCUGGGUACCUGUUCCCGGCCACAGUGGUCGGCGUCUCAGCAGCCAUU | 0.68 ratio
GACUGUGGAAAAGCCUUCAGUCAGAGUUCCAGCCUUAUUUACCAUCAGAGAAUCCAUAAAGGAGAGAAGCCCUACGAAUGCCUCCAAUGCGGAAAAGCCUUCAGUAUGAGCACACAGCUU | 0.201 ratio
CCCCUUCAAGAGAUUCUCGUUUUUCAAAGAUGUGUAUAUCCUUUUAUCACUCACAAGUGGUAGCAUGUCAGAUGCUUCCCCCACCCCCACUGCUUUAUGUAAUAUGUCAUGGGCAUUUCG | 0.375 ratio
CGGGGGGCUUUCUGUGAAGUAAGACCAGAUGAUAAAAGGAUUCUGGAAUUUUACAGCAAGUUAGGCUGUUUUGAAAUUGCAAAAAUGGAAGGAUUUCCAAAGGAUGUGGUUAUACUUGGU | 0.788 ratio
GUGGACACACAACAUUUAAUUAAACAAUUAAGGCAGCAUUUUGCUAUGCUCUGAUUGUUCCUUAGACCACAUAUGUUCUUAUGAAGCAGCAUUAUGCAAGGGGAAAAAAGCACUAUGUCU | 1.04 ratio
GAUGAAAUGGGUUUGGGAAAGACACUUCAAACAAUUUCUCUUCUUGGAUACAUGAAACACUAUAGAAAUAUUCCUGGUCCUCAUAUGGUUUUGGUUCCCAAGUCUACAUUGCACAACUGG | 0.77 ratio
GACUUUAUCAUAGUAACUAUUAAAGCAAAGUUAUAAGCACAACUUCAAAGGACUUCAUCCUUAUCAGCUCUCUUAACUUGUAUCUUCAUUAAGGAACUCUGCAAGGUUAAGUUUACUUUU | 0.709 ratio

Block 5
Target: Interferon regulatory factor 5, full length, phosphomimetic (IRF5, Homo sapiens, UniProt Q13568-2, residues 1-514, K96S/S451D/S453D/S456D/S462D)
Technique: protein-binding microarray
Molecule type: double-stranded DNA, one strand shown
Medium: in vitro
Concentration: 250 nM
Notes: 60-bp whole probe
Together with: salmon DNA 0.4 mg/ml
Reference: random background probes
Direction: higher = stronger binding
Constant ends, left off below: GCCTAGCAC … GTCTTGATTCGCTTGACGCTGCTG
Oligonucleotide | log fluorescence
GAGGAGATGAGAAACGATGAGTGCTAG | 0.0648 z-score
TCATTTTCCTTATTGCTTACTGTGCTA | 2 z-score
TCATTTTTCATTGTTTTACTGTGCTAG | 1.96 z-score
TTAGGTTTCGGGTTTCGGTTTGTGCTA | 9.87 z-score
AAATCATTTTCTCTGTTCTAGTGCTAG | 1.77 z-score
TCAAGTAGCTTTCTGAGACTGTGCTAG | 0.538 z-score
GACGGTATCCTTCTCTTGACGTGCTAG | 0.126 z-score
GACGGTTGCGGGTTTCGGGACGTGCTA | 1.83 z-score
TTATGTTTCGACTTTCGGTTAGTGCTA | 10.9 z-score
GACGGTCTCCTCCTCCTGACGTGCTAG | -0.291 z-score
TTTCTTCTAGACTTCTCCATGTGCTAG | 4.7 z-score
GACGGACTGGGTTTCGGGTCGTGCTAG | 4.15 z-score
TTAGGTTCCCTACTGCTTTAGTGCTAG | -0.249 z-score
TTAGGCATCGGTCTCGGTTAGTGCTAG | 0.837 z-score
TCACGCTTCATCTCCCAGACTGTGCTA | 0.0147 z-score
TTAGGTTTCGACCATCGGTTAGTGCTA | 7 z-score
GACGGTCTCGGGCTGGGGACGTGCTAG | -0.504 z-score
TTAGTTTTCGGGACTGGGTTAGTGCTA | 3.9 z-score
GACGAACTGGGTTTCGGGACGTGCTAG | 2.91 z-score

Excerpt of the above (block 3):
Oligonucleotide | RBNS enrichment (R)
AUUAAAUCGUCACAGCCAAGUAAUAACCCAAGAAUGGUAUGAGUUUCAUGUGUAAUAGCUCAAAUGGAAUAAGCAUGAAUGCUGGAGUGGACCAUUAUCCUCAAAUAUUC | 9.87
UGUAUCUGGUUUCUACAUGGAAGACUAAACUCAUGCUUAUUGCUAAAUGUGGUCUUUGCCAACUAAAUUUAAGAUGCAGCAUUUUAGAAAUUUACAUAUCAAUGUUUCUA | 0.343
AUCCUUCUUGGCUUCCUGGCGCCCCCUAUCGGGGGUGAGCGAAGCCCCCACUACUAAAUGGCCUCUCUCCACUACCCCGACUAUCCCUGCACAUAAACUCCGUUUUUUUU | 0.506
CAGAAGUGUGACCUCAGUUAUAUAUACAUCCCAGCUCUGCCCAGUAUCCCUCACUUACCAAGAGGAGAAUGGAGGGAUAAUGGACUCACCCUAGCCUAGGGCUUCGACAU | 0.389
CUACUUGGAUAAAGAAUUUAAAUGGAAUUACGUAUAAAUUAAUAUAAAAUGAUUACCUCUGGUGUUGACAGGUUGAACUUGCACUCUUAAGGAACAGCCAUAACCCUCCG | 1.36
AUAUACUUUCUGUUAUUCCAAAAUGUCAUCAUUAGGGAAGCCACUAAGAGUUUGGAAAUAGGGGCUGGAGAGAUGCCUCUGUGGUUAAGAGCAUUGGCUGCUCCUCUAGA | 0.305
GUUUCACCUUCCCUCGACUUGACCCUUUCCUCCCCCAGCGUCAGUUUCACUCCCUCUUGGUUUUUAUCAAAUUUGCCAUGACAUUUCAUCUGGGUGGUCUGAAUAUUAAA | 0.605
UCUUUUAUCCGUCUAUUUAUUUUGUAAGUGUAUUCGUGUGGAGGAGGUUGUUGCUUUAUUUUUUUAAGGCUCUGGAGUGUUGUGUAUGGUUUCUUUUCACAUCCCAGCCU | 0.399
AGGGUCCUUGGUCUCUUCAGGCCCUGAGCGGGGUCAGGCACUGGGACGCCUUCCCCGCCCUCGAGGCUUCCCGGCUCUCAGAGGCUCCUUUUUUCUCUCCUGCUCCAGGC | 0.457
AAAAUCAACCCUGGUGUUGAGAGAACGUCCUUCUGUCCAUCGUGGGUAACAGCCUUGGGGAGGGUGCAGAGCUCUGCAGAGCCAUGGGCCAGGUGGGGCUGCCUCAGUCC | 0.467
UGUAAAUAGACAAAAGGAAACAUUUGCCAAAAGCGGCAGAUCUUUACUGAAAGAGAGAGCAGCUGUUAUGCAACAUAUAGAAAAAUGUAUAGAGGUUUGGACAGACCCGG | 0.65
UGAUGCCAAAAUAUUGCUUAUGUCUCUACAUGGUAUUGUAAUGAAUAUCUGCUUUAAUAUAGCUAUCAUUUCUUUUCCAAAAUUACUUCUCUCUAUCUGGAAUUUAAUUA | 0.412
